# Assay results pooled from the literature.
# Lines come from different studies, so protocols differ. ± marks the error that the study gave.
Compound,target,test,system,conditions,how to read,measurement,result
CC[C@H](C)[C@H](NC(=O)[C@H](CC(C)C)NC(=O)[C@H](Cc1ccc(OP(=O)(O)O)cc1)NC(=O)[C@H](CCC(=O)O)NC(=O)[C@H](CC(=O)O)NC(=O)[C@H](C)NC(=O)[C@H](CC(=O)O)NC(=O)[C@@H](NC(=O)[C@H](CC(C)C)NC(=O)CCCC[C@@H]1SC[C@@H]2NC(=O)N[C@@H]21)C(C)C)C(=O)N1CCC[C@H]1C(=O)N[C@@H](CCC(N)=O)C(=O)N[C@@H](CCC(N)=O)C(=O)NCC(=O)O,"Secreted effector protein (Yersinia pestis, UniProt O68720)",binding,,,,kon,34.9 M⁻¹ s⁻¹
O=[N+]([O-])c1cccc(O[C@H]2O[C@H](CO)[C@H](O)[C@H](O)[C@H]2O)c1,"ctxB (Vibrio cholerae, UniProt P01556)",binding,,,relative to: galactose,relative potency,58 fold
CCC[C@H](NC(=O)[C@H](CC(C)C)NC(=O)OCc1ccccc1)C(=O)C(=O)NCc1ccccn1,"Replicase polyprotein 1ab, main protease (rep, Middle East respiratory syndrome-related coronavirus, UniProt K9N7C7)",thermal stability,,,,ΔTm,0.81 °C
CCOC(=O)/C=C/[C@H](C[C@@H]1CCNC1=O)NC(=O)[C@H](Cc1ccccc1)NC(=O)[C@H](COC(C)(C)C)NC(=O)OCc1ccccc1,"Genome polyprotein, 3C protease (Human poliovirus 1 Mahoney, UniProt P03300)","protease activity, cell-based reporter",poliovirus,,,FLuc reporter expression,increased
O=C(C=Cc1ccc(O)c(O)c1)OC1CC(O)(C(=O)O)CC(OC(=O)C=Cc2ccc(O)c(O)c2)C1O (stereo not shown),"Spike glycoprotein (Severe acute respiratory syndrome coronavirus 2, UniProt P0DTC2)","binding, BLI",,,,kon,2510 M⁻¹ s⁻¹
CC(C)(C)OC(=O)C[C@H](NC(=O)OCc1ccccc1)C(=O)CBr,"Replicase polyprotein 1ab, main protease (rep, Severe acute respiratory syndrome-related coronavirus, UniProt P0C6X7)","enzyme activity, inhibitor",,concentration not given,,time to onset of irreversible inhibition,> 12 h
CC(C)C[C@@H]1NC(=O)[C@H](CCCNC(=N)N)NC(=O)[C@@H]2CCCN2C(=O)[C@@H]2CSSC[C@H](NC(=O)CNC(=O)[C@@H]3CCCN3C(=O)[C@H](CCCCN)NC(=O)[C@H](CC(=O)O)NC(=O)[C@@H](NC(=O)CN)C(C)C)C(=O)N[C@@H](CCCNC(=N)N)C(=O)N[C@@H](Cc3ccc(O)cc3)C(=O)N[C@@H](CC(C)C)C(=O)N[C@@H](Cc3ccccc3)C(=O)NCC(=O)NCC(=O)N[C@H]3CSSC[C@H](NC(=O)CNC1=O)C(=O)N[C@@H](CCCCN)C(=O)NCC(=O)N[C@@H](CCCCN)C(=O)NCC(=O)N[C@@H](Cc1c[nH]cn1)C(=O)N[C@@H](CC(=O)O)C(=O)N[C@@H](Cc1ccc(O)cc1)C(=O)N[C@H](C(=O)N[C@@H](C)C(=O)N[C@@H](Cc1c[nH]c4ccccc14)C(=O)N[C@@H](CC(=O)O)C(=O)NCC(=O)N[C@H](C(=O)N[C@@H](Cc1ccccc1)C(=O)N[C@@H](CO)C(=O)N[C@@H](CC(=O)O)C(=O)O)[C@@H](C)O)CSSC[C@H](NC(=O)[C@H](CC(=O)O)NC(=O)[C@H](CC(=O)O)NC(=O)[C@H](CC(=O)O)NC(=O)[C@H](CO)NC(=O)[C@H](CCCCN)NC3=O)C(=O)N2,"Sodium channel protein type 10 subunit alpha (SCN10A, Homo sapiens, UniProt Q9Y5Y9)",,,1 µM,,steady-state inactivation V0.5,-29.9 ± 1.3 mV
O=C1SCCC1NC(C(=O)NCc1ccccc1)C1CC1 (stereo not shown),"Thiosulfate sulfurtransferase (TST, Homo sapiens, UniProt Q16762)",activator,,"34.2 µM, versus potassium cyanide, with: sodium thiosulfate 60 mM",,Vmax,0.23 ± 0.01 mM/s
CC(C)(C(=O)N1CCC2(CC1)CC(CNS(C)(=O)=O)CCO2)c1ccccc1 (stereo not shown),"Polyprotein P1234, nsP2 (Chikungunya virus, UniProt Q8JUX6)","nsP2 ATPase activity, inhibitor, ADP-Glo",,high micromolar,,nsP2 ATPase inhibition,active
CC[C@H](C)[C@@H]1NC(=O)[C@H](CCCNC(=N)N)NC(=O)[C@H](CO)NC(=O)[C@H](CCC(=O)O)NC(=O)[C@H](CC(=O)O)NC(=O)CNC(=O)CNC(=O)[C@H]([C@@H](C)O)NC(=O)[C@H](Cc2ccccc2)NC(=O)[C@H](CO)NC(=O)[C@H]([C@@H](C)O)NC(=O)[C@H](C)NC(=O)[C@@H]2CSSC[C@@H](C(=O)N[C@@H](Cc3ccc(O)cc3)C(=O)N[C@@H](Cc3ccccc3)C(=O)N[C@H](C(=O)N[C@H](C(=O)NCC(=O)O)[C@@H](C)O)[C@@H](C)O)NC(=O)[C@H]([C@@H](C)O)NC(=O)[C@H](CSSC[C@H](NC(=O)[C@H](CCC(=O)O)NC(=O)[C@H](CO)NC(=O)[C@H](CCCCN)NC(=O)[C@H](Cc3ccc(O)cc3)NC(=O)[C@@H]3CCCN3C(=O)[C@H](Cc3ccccc3)NC(=O)[C@H](CCCCN)NC(=O)[C@H](CCCNC(=N)N)NC(=O)[C@H](CCCCN)NC(=O)[C@H](CCCCN)NC(=O)[C@H](Cc3ccc(O)cc3)NC(=O)[C@@H]3CCCN3C(=O)[C@@H](NC(=O)[C@H](CC(=O)O)NC(=O)[C@H](CCCCN)NC(=O)[C@H](CCCCN)NC(=O)[C@@H](NC(=O)[C@@H](NC(=O)[C@@H](N)CCC(=O)O)C(C)C)[C@@H](C)CC)[C@@H](C)O)C(=O)N[C@@H](CC(C)C)C(=O)N[C@@H](CCCCN)C(=O)N[C@@H](C)C(=O)N2)NC(=O)[C@H](CCCCN)NC(=O)[C@H](Cc2ccccc2)NC(=O)[C@H](Cc2ccccc2)NC(=O)CNC(=O)[C@@H]2CCCN2C(=O)[C@H](CCCCN)NC(=O)CNC(=O)[C@H](CCC(=O)O)NC(=O)[C@H](CCC(N)=O)NC1=O,"Potassium voltage-gated channel subfamily KQT member 5 (KCNQ5, Homo sapiens, UniProt Q9NR82)","potassium current, whole-cell patch clamp",HEK-293T,,,Hill slope,1.12 ± 0.06
